{"data": "Published values gathered from unrelated publications", "note": "Each line is one published result; not all experiments were run side by side. ± marks the error that the study gave."}
{"SMILES": "C=C(NC(=O)c1csc(-c2nc3c(cc2O)-c2nc(cs2)C(=O)NC(C(C)O)C(=O)NC(=C(C)OC)c2nc(cs2)C(=O)NC2c4nc(cs4)C(=O)NC(COC(=O)c4c5c6c(cccc6n4O)COC(=O)C(OC4CC(C)(O)C(N(C)C)C(C)O4)C2OC5)c2nc-3cs2)n1)C(N)=O (stereo not shown)", "system": "ICR mice, Streptococcus pneumoniae ATCC 49169 infected, immunocompromised, blood", "conditions": "intravenous, 8 mg/kg/day twice daily", "quantity": "AUC(0-inf)", "value": "790 ng·h/mL"}
{"SMILES": "COc1cccc(OC)c1-c1cc(C(=O)NC2(C(=O)O)C3CC4CC(C3)CC2C4)nn1-c1ccc(C(=O)NCCNC(=O)[C@H](CCCCNC(=O)[C@H](CC(C)C)NC(=O)C2OC2C(=O)O)NC(=O)CN2CCN(CC(=O)[O-])CCN(CC(=O)[O-])CCN(CC(=O)[O-])CC2)cc1C(C)C.[177Lu+3] (mixture of isomers)", "system": "mouse HT-29 xenograft, small intestine", "conditions": "168 h post injection, biodistribution", "quantity": "tissue uptake", "value": "0.11 %ID/g"}
{"SMILES": "O=C(N/N=C/c1ccc(C[n+]2ccccc2)cc1)c1ccc2ccc(C(=O)N/N=C/c3ccc(C[n+]4ccccc4)cc3)nc2n1", "target or system": "hp2 hairpin duplex DNA", "test": "FRET melting", "conditions": "1 µM, with: ds26 10 µM", "quantity": "ΔTm", "value": "0.3 ± 0.4 °C"}
{"SMILES": "COc1cccc(OC)c1-c1cc(C(=O)NC2(C(=O)O)C3CC4CC(C3)CC2C4)nn1-c1ccc(C(=O)N(C)CCCN(C)CCCN(C)C(=O)[C@H](CCCCNC(=O)[C@H](CC(C)C)NC(=O)C2OC2C(=O)O)NC(=O)CN2CCN(CC(=O)[O-])CCN(CC(=O)[O-])CCN(CC(=O)[O-])CC2)cc1C(C)C.[177Lu+3] (mixture of isomers)", "system": "mouse, HT-29 xenograft, heart", "conditions": "72 h post injection", "quantity": "tissue uptake", "value": "0.18 %ID/g"}
{"SMILES": "Cc1cc(C)n(CCN(CCN)CCCCCCNC(=O)[C@@H](N)Cc2c[nH]cn2)n1.[99Tc+].[C-]#[O+].[C-]#[O+].[C-]#[O+]", "system": "BALB/c nude mice, MCF7 xenograft, liver", "conditions": "intravenous, 4 h", "quantity": "tissue uptake", "value": "10.1 ± 1.67 %IA/g"}
{"SMILES": "N#C[C@@H]1CC(F)(F)CN1C(=O)CNC(=O)c1ccnc2c(NC(=O)[C@H](CCCCNC(=O)CCOCCOCCOCCOCCOCCOCCNC(=O)CN3CCN(CC(=O)[O-])CCN(CC(=O)[O-])CCN(CC(=O)[O-])CC3)NC(=O)CCCc3ccc(I)cc3)cccc12.[177Lu+3]", "system": "mouse, U-87 MG tumour xenograft, kidneys", "conditions": "1 h", "quantity": "tissue uptake", "value": "6.59 ± 3.94 %ID/g"}
{"SMILES": "CC(C)(C)OC(=O)N1CCN(S(=O)(=O)c2ccc(-c3ccc4ncnc(Nc5ccc(OCc6cccc(F)c6)c(Cl)c5)c4c3)cc2)CC1", "target or system": "Leishmania major", "test": "intracellular amastigote growth, luciferase", "system": "RAW264.7 macrophages", "quantity": "EC50", "value": "> 15 µM"}
{"SMILES": "O=C(NCC1OC2CCC=CCCC2O1)c1ccc([18F])nc1 (stereo not shown)", "system": "healthy female BALB/c nude mice, small intestine", "conditions": "intravenous, 7.4 MBq per mouse, 60 min", "quantity": "tissue uptake", "value": "6.1 ± 1.2 %ID/g"}
{"SMILES": "CCCC[C@H](NC(=O)CNC(=O)CNC(=O)[C@H](CCCCNC(=O)[C@H](CC(=O)O)NC(=O)C(C)c1ccc(CC(C)C)cc1)NC(=O)CN1CCN(CC(=O)O)CCN(CC(=O)O)CCN(CC(=O)O)CC1)C(=O)N[C@H]1CC(=O)NCCCC[C@@H](C(N)=O)NC(=O)[C@H](Cc2c[nH]c3ccccc23)NC(=O)[C@H](CCCNC(=N)N)NC(=O)[C@@H](Cc2ccccc2)NC(=O)[C@H](Cc2c[nH]cn2)NC1=O (stereo partly shown) [lutetium-177 labelled]", "system": "C57 mice, tumour-bearing, tumor", "conditions": "intravenous, 0.037 MBq, 0.5 h", "quantity": "tissue uptake", "value": "19.5 ± 3.12 %ID/g"}
{"SMILES": "N#C[C@@H]1CC(F)(F)CN1C(=O)CNC(=O)c1ccnc2c(NC(=O)[C@@H](N)CCCCNC(=O)CCOCCOCCOCCOCCOCCOCCNC(=O)CN3CCN(CC(=O)[O-])CCN(CC(=O)[O-])CCN(CC(=O)[O-])CC3)cccc12.[177Lu+3]", "system": "mouse, U-87 MG tumour xenograft, kidneys", "conditions": "24 h", "quantity": "tissue uptake", "value": "2.68 ± 0.04 %ID/g"}
{"SMILES": "COc1cccc(OC)c1-c1cc(C(=O)NC2(C(=O)O)C3CC4CC(C3)CC2C4)nn1-c1ccc(C(=O)N(C)CCCN(C)C(=O)[C@H](CCCCNC(=O)[C@H](CC(C)C)NC(=O)C2OC2C(=O)O)NC(=O)CN2CCN(CC(=O)[O-])CCN(CC(=O)[O-])CCN(CC(=O)[O-])CC2)cc1C(C)C.[177Lu+3] (mixture of isomers)", "system": "mouse, HT-29 xenograft, muscle", "conditions": "72 h post injection", "quantity": "tissue uptake", "value": "0.05 %ID/g"}
{"SMILES": "O=C(O)CCCOc1ccc([18F])cc1-c1cc(-c2ccccc2C(F)(F)F)n(-c2ccccc2)n1", "system": "mouse, bone", "conditions": "intravenous, dose not given, 30 min", "quantity": "tissue uptake", "value": "1.1 ± 0.31 %ID/g"}
{"SMILES": "C[n+]1cccc2cc(/C=N/NC(=O)c3cncc(C(=O)N/N=C/c4ccc5c(ccc[n+]5C)c4)n3)ccc21", "target or system": "MYC parallel G4 DNA", "test": "FRET melting", "conditions": "1 µM, DNA 0.2 µM, with: duplex DNA competitor 10 µM", "quantity": "ΔTm", "value": "8.4 ± 0.5 °C"}
{"note": "A few entries again:"}
{"SMILES": "N#C[C@@H]1CC(F)(F)CN1C(=O)CNC(=O)c1ccnc2c(NC(=O)[C@@H](N)CCCCNC(=O)CCOCCOCCOCCOCCOCCOCCNC(=O)CN3CCN(CC(=O)[O-])CCN(CC(=O)[O-])CCN(CC(=O)[O-])CC3)cccc12.[177Lu+3]", "system": "mouse, U-87 MG tumour xenograft, kidneys", "conditions": "24 h", "quantity": "tissue uptake", "value": "2.68 ± 0.04 %ID/g"}
{"SMILES": "COc1cccc(OC)c1-c1cc(C(=O)NC2(C(=O)O)C3CC4CC(C3)CC2C4)nn1-c1ccc(C(=O)N(C)CCCN(C)C(=O)[C@H](CCCCNC(=O)[C@H](CC(C)C)NC(=O)C2OC2C(=O)O)NC(=O)CN2CCN(CC(=O)[O-])CCN(CC(=O)[O-])CCN(CC(=O)[O-])CC2)cc1C(C)C.[177Lu+3] (mixture of isomers)", "system": "mouse, HT-29 xenograft, muscle", "conditions": "72 h post injection", "quantity": "tissue uptake", "value": "0.05 %ID/g"}
